Results pooled from the literature.
Protocols differ between the studies behind these lines. ± gives the spread as reported. Values after ≈ are worked out from the molar mass of the structure shown.

SMILES | technique | matrix | pH | endpoint | result
Cc1c(=O)n(C)c(Nc2ccc(I)cc2F)c2c(=O)n(C3CC3)c(=O)n(-c3cccc(NC(=O)CCOCCOCCNC(=O)CCC4=[N+]5C(=Cc6ccc(-c7ccc[nH]7)n6[B-]5(F)F)C=C4)c3)c12 | – | – | – | solubility limit | ~2 µM (≈ 2.09 µg/mL)
CCCCCCCCCC(=O)Nc1ccc(C(O)P(=O)(O)O)cc1 (stereo not shown) | – | water | – | solubility | 4 mg/mL
CCOc1ccccc1Nc1nnc(SCC(=O)Nc2cc(F)ccc2F)s1 | – | FaSSIF | – | solubility | 138 µM
CN1CCC[C@@H]1C(=O)N[C@@H](Cc1ccc(-c2ccccn2)cc1)B(O)O | nephelometry | phosphate buffer | pH 6.8 | solubility | 100 µM
CC1(CNC(=O)[C@H](CN)NC(=O)c2ccc(C#CC#Cc3ccccc3)cc2)NC(=O)NC1=O (stereo partly shown) | – | aqueous buffer | pH 7.4 | solubility | < 2.45 mg/mL
COc1cccc(-c2cc(-n3nncc3-c3ccc(C(F)(F)F)cc3)ccc2OC)c1 | – | water | – | solubility | 13.6 ± 0.2 µM
O=C(NO)[C@H]1COC(c2ccc(F)c(C(F)(F)F)c2)=N1 | – | aqueous buffer | pH 7.4 | solubility | 90.3 mg/mL
COc1ccc(CC(=O)OCc2ccc(-n3cccn3)cc2)cc1F | – | FaSSIF | – | solubility | 89.3 µM
CN1CCC[C@@H]1C(=O)N[C@@H](Cc1ccccc1)B(O)O | nephelometry | phosphate buffer | pH 6.8 | solubility | > 200 µM
O=C(NO)[C@H]1COC(c2ccc(OCc3cccc(F)c3)c(OC(F)(F)F)c2)=N1 | – | aqueous buffer | pH 7.4 | solubility | 262 mg/mL

A few entries again:
SMILES | technique | matrix | pH | endpoint | result
O=C(NO)[C@H]1COC(c2ccc(OCc3cccc(F)c3)c(OC(F)(F)F)c2)=N1 | – | aqueous buffer | pH 7.4 | solubility | 262 mg/mL
